# Measured values of several laboratories.
# A part holds a random share of what one study measured. Changes are numbered by the printed parent chain.

# Series 1
# Target: RNA binding protein fox-1 homolog 2, RRM domain, GST-SBP tag (RBFOX2, Homo sapiens, UniProt O43251-10, residues 100-194)
# Method: RNA Bind-n-Seq
# Molecule type: RNA
# Medium: in vitro
# Concentration: 365 nM
# Notes: natural RNA segment, single round, ends assumed
# Reference: no-protein control
# Reading: higher = stronger binding
# All sequences stand within: GGGAGUUCUACAGUCCGACGAUC … UGGAAUUCUCGGGUGCCAA
# Target sequence (chain): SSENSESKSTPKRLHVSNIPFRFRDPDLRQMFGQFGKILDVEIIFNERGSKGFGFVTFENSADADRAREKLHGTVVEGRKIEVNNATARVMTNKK
Strand,RBNS enrichment (R)
CUGAAGCAACCUUCAAUUUUCAUAAGCCAAGUCUUGGGUCCAGGGAACUCCACAGUGCUCCCACCCCCACCCCCUCUACUGAUUACAAGGAAUCCUACAUGCCAUCUUCA,0.458
ACGAUGAUAUUGCUGAUCAAAAGUUAUGAACAGAAAUAAGAGUGACAGCUAGCUAAGUCAAGCUUUUCAAUAGAGGAGAAAAUAAAGAUGGCGACAGGUUGGCUUAGGUG,0.514
CAGGACCCUGAUCAUUCACUGUGACACCCCAGCCCUCCAAGGGUACCCCGGGAGACCACGUGACUCUCUCUCUCUCUCUGUCUCUCUCUCUCUCUGUCUCUCUCUCUCUC,0.884
GCUCACAGAGAUCAGAACUCUGUGUAGAUCACACUGGUCUAGAACUCAGAGUCUGCCUGCAUCUGUCUCCUAGUGCUGGGAUUAAAGGUGUGAGCCAUUAUACCUGGCUU,1.73
UGCAGCUUACAUCAAACGAACAUGUAGUGCAUGCCCACUGCCUGAUGGCCAGAUGGCCUGUAGGAAGAGCUACCAGGGCUUCCAGACCUGUGGAACGAAGAGGAUGGGGA,4.7
AAAUUGGUUUGUCAUUUACCUCCAUGUGACUCCUUGCCCCAUAUAAAUGUCAGCAUAUGUAGCAAGUUUUCUAAGAAUGUAACUUAAUUUGAAGCUCCUGAAAUUUUGAG,1.32
UCUGGUUUUGCCCUGUCAUGUCGUAACGAGGUGGGCCUUUUGAGGCCAUUUUAGUUUGAGUUCGAGCCAACCACCUCUGUUGGUUAGAUGAUGAAUAAAAAGGUUCUGAA,0.283
UCUUUGGGCAGAGGUUUGAUUUUUGGCAUUUGUACAAGCCGCACGGGCAAAGGGGGAAAAGAAUGCCGUAGGGGACCACACCUAAGGGACCAAAAGAUACCCACUGUCAC,1.38
CAGCUAUGCUUCCAAUUUUGCACAUCUUCCUUUAAAAACAGGCAACAAAACAAAACCUGAGAAAAUGCAAAACUGGAACUUUUUGCAAUAUUCUGAAAGAUAAUCUUCCU,0.904
CUGACAUCCACCACAGAGGACGAGUAGGGCCACCCAGGGCCAGGAGAACAGGAACAGAACUGAGCAGGGGCAGGUCUCCAAGGCAAGCCCAGCUGGUGUGACUUAGACAA,0.382
UUAAGUUUAAAAAUCUUAAGUUUAUUAUGUUAAAUUGAAUUUUGUCAACCCUUCUUUUUAAAUUAAAAUAAUUGAAUAGAGUGCCUAGUUAAAUUUUCUCAAAGCAAGGU,0.948
AUAGAUCUUCUGUGUCGUUGCAUGGAAGGGAAGACUUUGUAUAACACGCAUCAACACAUCCUCCCCAAAUCUCAAGCAAUAGACAGAAAUCUCAGUAGACUAAACUCCAG,0.575

# Series 2
# Target: CCNB1, cyclin fold, Cln2 fusion (human)
# Method: yeast growth competition, sequencing
# Medium: yeast
# Notes: weak parent motif
# Reference: not given
# Reading: higher = stronger binding
# Starting sequence: ORC1 docking peptide (human); PRARKRLELGNLG
Substitution,normalised enrichment score
PRARKRYELGNLG [L7Y],1.1
PRARKRTELGNLG [L7T],0.265
PRALKRLELGNLG [R4L],1.01
PRARKRDELGNLG [L7D],0.434
GRARKRLELGNLG [P1G],-0.727
PRARKKLELGNLG [R6K],0.226
PRADKRLELGNLG [R4D],0.269
PRPRKRLELGNLG [A3P],0.568
PRARKNLELGNLG [R6N],0.64
PRLRKRLELGNLG [A3L],0.115
PRARKILELGNLG [R6I],0.829
PRVRKRLELGNLG [A3V],0.78
PRARKRLELGNLA [G13A],0.623
PRARKRFELGNLG [L7F],-0.26
PRARKRLELGNLI [G13I],0.35
PRANKRLELGNLG [R4N],0.641
PRARKRLELGGLG [N11G],1.14

# Series 3
# Target: Histone acetyltransferase KAT6A, winged helix 1, GST fusion (KAT6A, Homo sapiens, UniProt Q92794, residues 1-85)
# Method: protein binding microarray
# Molecule type: double-stranded DNA, one strand shown
# Medium: in vitro
# Concentration: not given
# Notes: 8-mer, flanks averaged, mean of 2 arrays, mostly near background
# Reference: not given
# Reading: higher = stronger binding
# Construct (chain): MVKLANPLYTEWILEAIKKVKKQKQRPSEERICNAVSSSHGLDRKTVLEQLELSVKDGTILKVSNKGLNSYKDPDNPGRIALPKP
Strand,E-score
GGAAGTGA,0.0589
CAGAGAGC,-0.0604
CTACAAAA,-0.112
CCATATAC,0.0424
CAGATTGC,-0.115
CTAGCTAA,-0.103
CTACACCC,-0.139
CGGCGCGC,0.469
CACTCTGG,-0.188
ACCAGGGG,-0.0503
AACACCGA,0.108
AAACCAGG,0.00732
CATCGCGA,0.246
AGCGTATC,0.222
ACGCGAAT,0.128
AACTAGGT,-0.116
TACATCAA,-0.14
AGTTCCCC,0.0874
GTGTTGAA,-0.122
CACCGGGG,0.225
TAATACGA,-0.189
AACTGGGA,-0.21
CAACCGCC,0.186

# Series 4
# Target: Ras GTPase-activating protein-binding protein 1, full length (G3BP1, Homo sapiens, UniProt Q13283)
# Sequence of UniProt Q13283 (whole entry, looked up): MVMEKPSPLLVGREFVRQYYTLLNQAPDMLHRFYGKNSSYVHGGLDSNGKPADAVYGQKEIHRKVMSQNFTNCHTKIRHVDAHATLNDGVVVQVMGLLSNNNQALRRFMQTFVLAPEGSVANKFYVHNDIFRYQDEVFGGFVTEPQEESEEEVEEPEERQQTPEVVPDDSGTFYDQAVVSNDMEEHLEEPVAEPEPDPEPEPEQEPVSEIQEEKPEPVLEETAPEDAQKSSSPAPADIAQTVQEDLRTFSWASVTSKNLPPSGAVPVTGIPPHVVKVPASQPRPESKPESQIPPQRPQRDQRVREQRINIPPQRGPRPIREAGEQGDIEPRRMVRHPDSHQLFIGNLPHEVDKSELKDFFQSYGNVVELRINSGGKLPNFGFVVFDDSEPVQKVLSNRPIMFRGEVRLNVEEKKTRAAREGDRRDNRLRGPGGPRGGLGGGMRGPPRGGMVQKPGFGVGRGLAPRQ
# Method: RNA Bind-n-Seq
# Molecule type: RNA
# Medium: in vitro
# Concentration: 200 nM
# Notes: whole 134-nt RNA, ends assumed
# Together with: 150 mM KCl
# Reference: input library
# Reading: higher = stronger binding
# All sequences stand within: GGGAGUUCUACAGUCCGACGAUC … UGGAAUUCUCGGGUGUCAAGG
Strand,log2 enrichment
CCUGUGCUACACAUCGUAUGUACCGAAUCGGCCCCCCCGGGGCCCCCCCGGCCCCCCCGGAAAGUAUUAUGUUACGCCGUUCGGAUCUGC,-0.203
UCAAGUCCUGUGCUACACAUCGUAUGUACCGAAUCGGUGGAAAGGUUUUUUUGGAAAGUAUUAUGUUACGCCGUUCGGAUCUGCACUUCC,-0.943
CUCAAGUCCUGUGCUACACAUCGUAUGUACCGAAUCGGGUUGGUUGGGGUUGGAAAGUAUUAUGUUACGCCGUUCGGAUCUGCACUUCCA,0.136
AGUCCUGUGCUACACAUCGUAUGUACCGAAUCGGGAAAGGGUUUUUGGGUUUUUGGGAAAGUAUUAUGUUACGCCGUUCGGAUCUGCACU,-0.392
CUCAAGUCCUGUGCUACACAUCGUAUGUACCGAAUCGGGGUUGGGUUGGUUGGGAAAGUAUUAUGUUACGCCGUUCGGAUCUGCACUUCC,0.579
CCUGUGCUACACAUCGUAUGUACCGAAUCGUGUGUGUGUGUGUGUGUGUGUGUGUGUGUGUAAAGUAUUAUGUUACGCCGUUCGGAUCUG,0.961
ACCAUGCAGGUGGGCAUCUUUGGGAAGUGGGGCAAGGGGGGGAUAGGGAGGGGGGUAACACUUUGGGAACAGGUGGUCCCAAGUCGUUUC,1.02
UGGCCCUGGUGGCAUGCGGGGAGGAAGAGGUGGCCUCAUGGAUCGUGGUGGUCCCGGUGGAAUGUUCAGAGAUGGCCGUGGUGGAGACAG,0.408
AGUCCUGUGCUACACAUCGUAUGUACCGAAUCGGAAAAAGGUUUUUGGUUUUUUUGGAAAGUAUUAUGUUACGCCGUUCGGAUCUGCACU,-1.79
UAACUUUAGAGGAGGAUCUGAUGGAUAUGCCAGUGGACGUGGAUUUGGGGAUGGCUAUAAUGGGUAUGGAGGAGGACCUGGAGGUGGCAA,0.332
UCCUGUGCUACACAUCGUAUGUACCGAAUCGGGUUUUUUUGGGUUUGGGUUUUUUUGGGAAAGUAUUAUGUUACGCCGUUCGGAUCUGCA,-0.348
ACCAUGCAGGUGGGCAUCUUUGGGAAGUGGGGCAAGGGGGGGAUAGGGAGGCGGGUAACACUUUGGGAACAGGUGGUCCCAGGUCGUUUC,1.11
UUUACAAAUAUGCCCAAGACUUCUUGGUGGCUAUUGCAGAGCCAGUGUGCCGACCAACCCAUGUGCAUGAGUACAAACUAACUGCCUACU,0.0178
UCCUGUGCUACACAUCGUAUGUACCGAAUCGGGGAAAGGGGAAAGGGGAAAAAAAGGGGAAAGUAUUAUGUUACGCCGUUCGGAUCUGCA,0.605

# Series 5
# Target: Phosphate system positive regulatory protein PHO4, full length, GST-tagged (PHO4, Saccharomyces cerevisiae, UniProt P07270, residues 1-312)
# Method: competition protein-binding microarray
# Molecule type: double-stranded DNA, one strand shown
# Medium: in vitro
# Concentration: 2 µM
# Notes: whole 60-bp probe, lowest competitor level
# Together with: Cbf1 competitor, 0.05 µM
# Reading: higher = stronger binding
# All sequences stand within: … GTCTTGATTCGCTTGACGCTGCTG
# Residues (chain): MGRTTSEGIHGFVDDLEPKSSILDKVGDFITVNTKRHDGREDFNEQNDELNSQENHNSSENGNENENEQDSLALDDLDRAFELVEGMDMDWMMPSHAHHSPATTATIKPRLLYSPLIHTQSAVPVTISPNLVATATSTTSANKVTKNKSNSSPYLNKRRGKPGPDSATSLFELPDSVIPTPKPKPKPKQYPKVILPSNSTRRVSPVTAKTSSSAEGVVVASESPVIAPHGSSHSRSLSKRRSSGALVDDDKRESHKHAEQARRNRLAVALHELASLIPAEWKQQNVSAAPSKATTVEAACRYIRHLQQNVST
Strand,fluorescence intensity [a.u.]
CATACCCAACCTTGGGGCGTGGGTGAAGATATTTGT,11000
ACAAAAATGACGGAACTCGTGACTCGAGTCAAAAGC,6630
GGGACCTCCAGCAAGCACATGGCATCCTTTTATAAG,10800
CGTCCTAGCGATTGACAGGTGGGTGCCATGAGGAAG,8010
CATACCCAACCTTGTCACCCGACTTAAGATATTTGT,3550
GTAAATGCCGCCCATCACGTGGTGAAGAAAAGAAAC,16200
AACTGTTTCAGAACAAACGTGGTCGTCCCAAGAAGT,11800
GGGTTATCGTAGTGAGTCGTGGCCGCAACGATAGCA,5630
CTTCTGTAAATTTGTTACGTGGGTGGACGCGCCCCG,6370
GGAGTTAAAGTCGACCACGGGTCCTTTGGAGCATAG,9330
TTTCTAATTGGCCATCACGTTCAATAGTGGCTCTGA,8490
GCCGAGGGTAACTTCCACGGGAGAACCTTCGGTGCT,3380
CCTGCCAAGGGTAACCACGTGCTGGGAGATTTGCAG,17900
CATGATTTTTGCTTTGGCATTGTTCTGGTATGGTAT,4550
GCTGAGTACTTTGGGGTCGTGATGGAGCTGTGCTAC,7270
TCTGATTCGTTAAAATACGTGATGGTGTTATTTTTA,4840
GAGTGCTTGCAATATCACAGCGGTAGCTAGACTCGC,3250
CTGTTGGATATGCTTGTCGTGATGGAATACTGTTCT,5320
TCTGAACTAAAAAAAGGCGTGCCAGATACTATATAT,9420
CGTCCTAGTGATTGTCACCCCACTTCCATGAGGAAG,4630
CAGTGGGAATCTGTTCATGTGGCTGTATCACAACCA,6450

# For quick reference, copied from above (series 5):
Strand,fluorescence intensity [a.u.]
CATGATTTTTGCTTTGGCATTGTTCTGGTATGGTAT,4550
GGAGTTAAAGTCGACCACGGGTCCTTTGGAGCATAG,9330
GTAAATGCCGCCCATCACGTGGTGAAGAAAAGAAAC,16200
GCCGAGGGTAACTTCCACGGGAGAACCTTCGGTGCT,3380
CAGTGGGAATCTGTTCATGTGGCTGTATCACAACCA,6450
GGGACCTCCAGCAAGCACATGGCATCCTTTTATAAG,10800
GAGTGCTTGCAATATCACAGCGGTAGCTAGACTCGC,3250
CATACCCAACCTTGTCACCCGACTTAAGATATTTGT,3550
CTGTTGGATATGCTTGTCGTGATGGAATACTGTTCT,5320
ACAAAAATGACGGAACTCGTGACTCGAGTCAAAAGC,6630
TTTCTAATTGGCCATCACGTTCAATAGTGGCTCTGA,8490
GCTGAGTACTTTGGGGTCGTGATGGAGCTGTGCTAC,7270
GGGTTATCGTAGTGAGTCGTGGCCGCAACGATAGCA,5630
CGTCCTAGTGATTGTCACCCCACTTCCATGAGGAAG,4630
